Earlier results, collected from citations in different studies.
Protocols differ between the studies behind these lines. Numbers after ± are the reported error.
Chain of UniProt P0DOF5 (whole entry, looked up): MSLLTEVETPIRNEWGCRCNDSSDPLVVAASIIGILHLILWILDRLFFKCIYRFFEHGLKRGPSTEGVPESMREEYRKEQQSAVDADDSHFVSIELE

Molecule | tested on | test | system | conditions | measurement | result
M2 transmembrane domain (Influenza A virus, UniProt P0DOF5) | – | solid-state NMR, item: His37 | lipid bilayers | tetramer, third protonation | pKa | 6.3
CC(CN1c2ccccc2Sc2ccccc21)N(C)C (stereo not drawn) | SARS-CoV | cytopathic effect | Vero E6 | – | EC50 | 7.54 µM
MLEPFQILSISSFILSALHFMAWTIGHLNQIKR (BM2 transmembrane domain (Influenza B virus)) | – | solid-state NMR, item: His27 | peptide, VM+ membrane | wild-type tetramer, lower value | pKa | 5.9
C[C@H]1CO[C@@H]2Cn3cc(C(=O)NCc4ccc(F)cc4F)c(=O)c(O)c3C(=O)N12 | HIV-1 | viral replication, single-round vector infection | IN G118R | – | EC50 | 0.0355 ± 0.0021 µM
CCR5 | HIV-1 gp120/CD4 complex | ternary complex binding | – | – | Kd | 0.005 µM
M2 (Influenza A virus, UniProt P0DOF5) | – | NMR, item: His37 | – | tetramer, third protonation | pKa | 6.3

Some of these lines once more:
Molecule | tested on | test | system | conditions | measurement | result
C[C@H]1CO[C@@H]2Cn3cc(C(=O)NCc4ccc(F)cc4F)c(=O)c(O)c3C(=O)N12 | HIV-1 | viral replication, single-round vector infection | IN G118R | – | EC50 | 0.0355 ± 0.0021 µM
